Measurements from different studies.
Lines come from different studies, so protocols differ. Numbers after ± are the reported error.

The IC50 of `CN[C@@H]1C[C@H]2O[C@@](C)([C@@H]1OC)n1c3ccccc3c3c4c(c5c6ccccc6n2c5c31)C(=O)NC4` is reported as 5.07 µM (Caco-2).
`O=C(Oc1ccccc1)[c-]1cccc1.[Fe+2].c1cc[cH-]c1` — result for IC50: “no effect” (MCF-10A; cell growth, MTT; 72 h).
The IC50 of `C/C1=C/C(=O)O[C@@H]2C[C@@H](CC[C@H](C)/C=C\C=C\CC1)O[C@@](OCCc1ccccc1)([C@@H]1CSC(=O)N1)C2` is reported as 0.1 µM (MDA-MB-231; cell invasion, Cultrex BME invasion; concentration not given).
`[Se]=c1n(C2CCCCC2)ccn1C1CCCCC1` gave an IC50 of 9.8 µM (H157 lung carcinoma cells; cell viability, MTT; 72 h).
With `N=C(N)Nc1ccc(NC(=O)c2cc(C(F)(F)F)cc(C(F)(F)F)c2)cc1OCc1ccccc1C(F)(F)F` the IC50 was greater than 500 µM (HEK293 cells; cell viability; 48 h).
`c1ccc([Se][Au]=[c]2n(C3CCCCC3)ccn2C2CCCCC2)cc1` has an IC50 of 2 µM (Vero E6; cytotoxicity, crystal violet).
For `N.N.[Cl][Pt][Cl]`, the IC50 was 9.6 µM (A549 (compound-resistant); cell growth, inhibitor, CellTiter-Glo; 96 h).
For `N.N.[Cl][Pt][Cl]`, the IC50 was 6.82 ± 0.23 µM (MDA-MB-468; cell viability; 48 h, light irradiation 2.5 min).
`O=C1[O][Pt]2([NH][C@@H]3CCCC[C@H]3[NH]2)[O]C1=O` gave an IC50 of 0.87 ± 0.02 µM (CT26; cytotoxicity, MTT; 72 h).
With `COc1c(C)c2c(c(O)c1C/C=C(\C)CCC(=O)O)C(=O)OC2` the IC50 was 3.24 µM (SAOS-2; cell proliferation; bone cancer).
With `C[C@H]1COCCN1c1nc(NCc2cccnc2C(F)(F)F)c2cccnc2n1` the IC50 was greater than 100 µM (cardiomyocytes; mitochondrial membrane potential; in vitro toxicology).
For `N.N.[Cl][Pt][Cl]`, the IC50 was 13.2 µM (SGC-7901; CCK-8; with glutamine).
`Cc1cc(C)c(N2CCN(c3c(C)cc(C)cc3C)C2=[Se])c(C)c1` gave an IC50 of 8.2 ± 0.1 µM (H157 lung carcinoma cells; cell viability, MTT; 72 h).
With `CN1CCN(S(=O)(=O)c2cc([N+](=O)[O-])ccc2N(CCOS(C)(=O)=O)CCOS(C)(=O)=O)CC1` the IC50 was 0.0286 µM (6 T-ALL PDX samples; cell viability; ex vivo; 48 h).

Excerpt of the above:
For `N.N.[Cl][Pt][Cl]`, the IC50 was 6.82 ± 0.23 µM (MDA-MB-468; cell viability; 48 h, light irradiation 2.5 min).
